Results pooled from the literature.
A part holds a random share of what one study measured.
Sequence of UniProt P51956 (whole entry, looked up): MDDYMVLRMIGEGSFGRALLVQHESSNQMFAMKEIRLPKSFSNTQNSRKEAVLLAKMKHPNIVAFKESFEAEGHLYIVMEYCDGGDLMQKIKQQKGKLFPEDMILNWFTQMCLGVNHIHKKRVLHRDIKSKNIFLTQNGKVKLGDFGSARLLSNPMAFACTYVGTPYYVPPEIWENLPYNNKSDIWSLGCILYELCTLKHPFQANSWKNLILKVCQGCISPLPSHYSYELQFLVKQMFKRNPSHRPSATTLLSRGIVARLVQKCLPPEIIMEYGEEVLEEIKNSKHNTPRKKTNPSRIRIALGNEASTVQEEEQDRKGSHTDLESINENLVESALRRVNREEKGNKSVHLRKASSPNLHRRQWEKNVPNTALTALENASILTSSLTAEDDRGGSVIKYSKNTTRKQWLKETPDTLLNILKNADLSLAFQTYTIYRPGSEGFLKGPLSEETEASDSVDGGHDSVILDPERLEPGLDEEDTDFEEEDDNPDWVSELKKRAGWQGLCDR
Sequence of UniProt Q9BWU1 (whole entry, looked up): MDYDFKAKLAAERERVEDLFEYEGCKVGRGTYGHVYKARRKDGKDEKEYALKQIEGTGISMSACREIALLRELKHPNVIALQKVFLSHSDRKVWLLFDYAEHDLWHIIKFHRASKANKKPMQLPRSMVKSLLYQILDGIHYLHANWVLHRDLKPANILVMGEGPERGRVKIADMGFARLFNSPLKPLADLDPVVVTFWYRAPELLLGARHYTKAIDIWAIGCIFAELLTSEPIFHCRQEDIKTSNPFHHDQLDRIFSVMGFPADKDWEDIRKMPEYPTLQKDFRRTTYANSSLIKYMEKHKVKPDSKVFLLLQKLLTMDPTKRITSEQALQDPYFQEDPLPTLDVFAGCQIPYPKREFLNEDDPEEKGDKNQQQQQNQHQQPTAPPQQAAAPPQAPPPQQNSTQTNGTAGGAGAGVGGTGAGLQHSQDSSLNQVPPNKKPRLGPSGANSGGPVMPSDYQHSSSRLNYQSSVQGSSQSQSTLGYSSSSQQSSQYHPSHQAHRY
Sequence of UniProt Q99759 (whole entry, looked up): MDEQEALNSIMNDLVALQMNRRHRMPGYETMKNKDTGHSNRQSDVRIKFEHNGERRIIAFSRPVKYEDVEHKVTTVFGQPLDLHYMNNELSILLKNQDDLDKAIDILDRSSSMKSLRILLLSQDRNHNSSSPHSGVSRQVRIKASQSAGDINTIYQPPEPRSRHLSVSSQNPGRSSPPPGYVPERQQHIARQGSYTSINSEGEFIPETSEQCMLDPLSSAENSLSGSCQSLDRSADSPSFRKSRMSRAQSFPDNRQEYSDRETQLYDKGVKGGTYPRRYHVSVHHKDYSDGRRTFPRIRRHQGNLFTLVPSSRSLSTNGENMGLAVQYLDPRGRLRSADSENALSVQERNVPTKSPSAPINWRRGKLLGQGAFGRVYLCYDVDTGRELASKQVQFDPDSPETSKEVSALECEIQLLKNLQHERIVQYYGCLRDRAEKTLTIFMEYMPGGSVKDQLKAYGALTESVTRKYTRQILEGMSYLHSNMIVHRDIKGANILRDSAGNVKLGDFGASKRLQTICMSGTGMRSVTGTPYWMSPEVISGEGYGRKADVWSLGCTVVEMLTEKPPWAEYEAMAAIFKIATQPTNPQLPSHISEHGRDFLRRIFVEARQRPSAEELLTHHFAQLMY
Sequence of UniProt Q9H1R3 (whole entry, looked up): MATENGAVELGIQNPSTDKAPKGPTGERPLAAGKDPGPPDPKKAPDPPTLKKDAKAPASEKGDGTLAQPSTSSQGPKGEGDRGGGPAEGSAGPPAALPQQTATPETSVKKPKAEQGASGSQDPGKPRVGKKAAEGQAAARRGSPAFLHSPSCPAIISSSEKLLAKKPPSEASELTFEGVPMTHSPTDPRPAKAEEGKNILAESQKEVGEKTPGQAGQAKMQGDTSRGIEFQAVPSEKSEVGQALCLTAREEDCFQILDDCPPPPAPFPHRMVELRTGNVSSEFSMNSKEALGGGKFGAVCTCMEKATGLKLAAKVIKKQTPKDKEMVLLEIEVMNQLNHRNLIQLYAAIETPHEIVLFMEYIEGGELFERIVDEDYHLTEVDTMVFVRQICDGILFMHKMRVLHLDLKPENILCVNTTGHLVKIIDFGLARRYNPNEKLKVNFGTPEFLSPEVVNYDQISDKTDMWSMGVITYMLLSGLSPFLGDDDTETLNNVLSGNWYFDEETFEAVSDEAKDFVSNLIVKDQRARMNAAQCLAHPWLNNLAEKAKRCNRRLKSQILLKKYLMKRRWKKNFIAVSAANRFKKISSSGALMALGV
Sequence of UniProt Q09013 (whole entry, looked up): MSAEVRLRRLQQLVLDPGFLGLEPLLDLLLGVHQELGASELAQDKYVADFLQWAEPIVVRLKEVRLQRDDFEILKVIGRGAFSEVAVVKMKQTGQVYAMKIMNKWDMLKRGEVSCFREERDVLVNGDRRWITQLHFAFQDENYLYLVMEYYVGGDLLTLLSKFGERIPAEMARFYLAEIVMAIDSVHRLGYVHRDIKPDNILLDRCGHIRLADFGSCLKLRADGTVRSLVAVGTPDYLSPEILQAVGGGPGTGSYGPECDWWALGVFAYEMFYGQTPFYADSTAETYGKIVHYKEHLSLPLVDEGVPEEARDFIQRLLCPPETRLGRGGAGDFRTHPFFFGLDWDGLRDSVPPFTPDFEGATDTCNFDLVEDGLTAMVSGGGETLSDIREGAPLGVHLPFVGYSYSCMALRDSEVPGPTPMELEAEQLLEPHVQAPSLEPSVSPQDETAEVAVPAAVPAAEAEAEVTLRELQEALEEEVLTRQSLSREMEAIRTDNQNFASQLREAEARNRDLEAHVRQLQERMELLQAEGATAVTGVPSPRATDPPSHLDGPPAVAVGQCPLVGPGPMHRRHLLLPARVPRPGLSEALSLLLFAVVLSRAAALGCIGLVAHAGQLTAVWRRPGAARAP
Sequence of UniProt Q2M2I8 (whole entry, looked up): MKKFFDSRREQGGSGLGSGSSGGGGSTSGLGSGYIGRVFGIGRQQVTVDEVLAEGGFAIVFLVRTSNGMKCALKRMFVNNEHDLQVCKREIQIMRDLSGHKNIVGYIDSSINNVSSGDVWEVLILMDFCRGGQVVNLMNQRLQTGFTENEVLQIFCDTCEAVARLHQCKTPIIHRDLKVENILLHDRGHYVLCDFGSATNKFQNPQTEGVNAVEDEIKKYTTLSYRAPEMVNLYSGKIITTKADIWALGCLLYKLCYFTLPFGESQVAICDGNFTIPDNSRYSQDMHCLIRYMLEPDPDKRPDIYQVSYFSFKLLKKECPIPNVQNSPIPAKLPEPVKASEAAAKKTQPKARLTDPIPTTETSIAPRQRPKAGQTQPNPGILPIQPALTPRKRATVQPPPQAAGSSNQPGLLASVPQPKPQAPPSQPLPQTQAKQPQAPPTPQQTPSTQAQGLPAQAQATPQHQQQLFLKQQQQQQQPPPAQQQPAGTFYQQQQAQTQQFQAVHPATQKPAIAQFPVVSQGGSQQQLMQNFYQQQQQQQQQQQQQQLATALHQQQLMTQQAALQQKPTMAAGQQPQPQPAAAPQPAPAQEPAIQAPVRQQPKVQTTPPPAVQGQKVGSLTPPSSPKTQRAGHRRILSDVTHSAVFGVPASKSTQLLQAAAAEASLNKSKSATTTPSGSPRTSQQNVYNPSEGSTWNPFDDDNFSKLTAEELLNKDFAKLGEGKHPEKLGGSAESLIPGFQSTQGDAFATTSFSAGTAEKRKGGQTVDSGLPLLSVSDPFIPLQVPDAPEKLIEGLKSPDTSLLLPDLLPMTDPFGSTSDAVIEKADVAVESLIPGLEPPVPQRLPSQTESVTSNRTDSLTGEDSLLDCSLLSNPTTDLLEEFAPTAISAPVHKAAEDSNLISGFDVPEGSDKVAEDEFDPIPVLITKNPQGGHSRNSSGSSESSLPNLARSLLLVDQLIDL
Sequence of UniProt Q96SB4 (whole entry, looked up): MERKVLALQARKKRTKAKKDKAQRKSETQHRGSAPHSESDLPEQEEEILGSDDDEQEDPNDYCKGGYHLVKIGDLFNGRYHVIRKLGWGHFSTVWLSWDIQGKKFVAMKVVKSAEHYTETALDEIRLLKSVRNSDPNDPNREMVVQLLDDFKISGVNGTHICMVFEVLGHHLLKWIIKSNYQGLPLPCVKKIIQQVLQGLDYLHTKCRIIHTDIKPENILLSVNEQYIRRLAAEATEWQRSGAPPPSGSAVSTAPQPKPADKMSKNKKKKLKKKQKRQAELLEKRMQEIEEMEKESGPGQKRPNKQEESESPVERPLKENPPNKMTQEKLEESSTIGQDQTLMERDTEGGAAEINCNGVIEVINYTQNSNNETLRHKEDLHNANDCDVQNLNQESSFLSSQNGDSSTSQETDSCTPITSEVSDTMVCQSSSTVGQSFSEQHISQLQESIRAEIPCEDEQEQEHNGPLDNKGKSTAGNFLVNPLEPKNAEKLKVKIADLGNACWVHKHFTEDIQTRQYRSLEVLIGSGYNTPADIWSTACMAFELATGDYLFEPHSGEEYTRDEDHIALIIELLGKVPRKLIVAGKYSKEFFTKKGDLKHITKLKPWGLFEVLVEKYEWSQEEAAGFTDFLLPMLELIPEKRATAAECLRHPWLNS
Sequence of UniProt P31751 (whole entry, looked up): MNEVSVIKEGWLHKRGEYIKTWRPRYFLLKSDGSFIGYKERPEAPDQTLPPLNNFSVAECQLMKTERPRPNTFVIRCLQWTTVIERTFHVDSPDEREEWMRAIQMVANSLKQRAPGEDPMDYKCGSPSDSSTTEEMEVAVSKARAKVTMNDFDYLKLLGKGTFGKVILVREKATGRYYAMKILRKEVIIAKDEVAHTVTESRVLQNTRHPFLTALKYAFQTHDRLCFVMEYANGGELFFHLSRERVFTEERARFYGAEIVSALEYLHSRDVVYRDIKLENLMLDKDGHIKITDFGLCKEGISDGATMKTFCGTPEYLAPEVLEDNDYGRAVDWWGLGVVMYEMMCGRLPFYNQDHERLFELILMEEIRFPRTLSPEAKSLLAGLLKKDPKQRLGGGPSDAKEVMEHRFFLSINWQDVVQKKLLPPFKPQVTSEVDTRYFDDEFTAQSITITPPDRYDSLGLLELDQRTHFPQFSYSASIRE

Study 1
Target: His6 tag
Technique: AlphaScreen counter screen
Tested at: concentration not given
`O=c1[nH]cnc2sc(-c3ccccc3)cc12` has an inhibition of 7.5%.
For `CCOC(=O)c1[nH]c2ccc(F)cc2c1NC(=O)c1ccccc1C(=O)O`, the inhibition was 1.95%.
The inhibition of `COC(=O)c1ccccc1NC(=O)CSc1nnc(-c2ccccc2)n1-n1cccc1` is reported as 17.6%.
The inhibition of `Cc1ccc(C(=O)O)cc1-c1ccc(C=C2NC(=O)N(c3ccccc3)C2=O)o1` is reported as -0.15%.
With `O=C1C(Cl)=C(N2C(=O)CCC2=O)C(=O)c2ccccc21` the inhibition was 8.75%.
With `O=C(Nc1nnc(SCc2ccc(F)cc2)s1)c1ccc(F)cc1` the inhibition was 1.8%.
The inhibition of `CC(C)NC[C@@H](C(=O)N1CCN(c2ncnc3c2[C@H](C)C[C@H]3O)CC1)c1ccc(Cl)cc1` is reported as -0.8%.

Study 2
Compound: O=C1NC(c2ccccn2)Sc2ccccc21 (centres unmarked)
Tested at: 1 µM
The remaining binding was 90% (CDK13 (Homo sapiens, UniProt Q14004); cell-free assay, competition with immobilised ligand).
For NEK3 (Homo sapiens, UniProt P51956); cell-free assay, competition with immobilised ligand: remaining binding read 80%.
For AAK1 (Homo sapiens, UniProt Q2M2I8); binding: remaining binding read 100%.
MYLK2 (Homo sapiens, UniProt Q9H1R3); cell-free assay, competition with immobilised ligand — remaining binding: 100%.
It gave 100% for remaining binding (MAP3K4 (Homo sapiens, UniProt Q9Y6R4); cell-free assay, competition with immobilised ligand).
It gave 87% for remaining binding (STK11 (Homo sapiens, UniProt Q15831); cell-free assay, competition with immobilised ligand).
SIK2 (Homo sapiens, UniProt Q9H0K1); cell-free assay, competition with immobilised ligand — remaining binding: 96%.
It gave 100% for remaining binding (MKNK2 (Homo sapiens, UniProt Q9HBH9); cell-free assay, competition with immobilised ligand).
For Non-receptor tyrosine-protein kinase TYK2, JH1 (TYK2, Homo sapiens, UniProt P29597); cell-free assay, competition with immobilised ligand: remaining binding read 88%.
For MAP3K3 (Homo sapiens, UniProt Q99759); cell-free assay, competition with immobilised ligand: remaining binding read 93%.
The remaining binding was 77% (TAOK3 (Homo sapiens, UniProt Q9H2K8); cell-free assay, competition with immobilised ligand).
It gave 88% for remaining binding (STK32C (Homo sapiens, UniProt Q86UX6); cell-free assay, competition with immobilised ligand).
Aurora kinase C (AURKC, Homo sapiens, UniProt Q9UQB9); cell-free assay, competition with immobilised ligand — remaining binding: 90%.
For STK36 (Homo sapiens, UniProt Q9NRP7); cell-free assay, competition with immobilised ligand: remaining binding read 79%.
FGFR1 (Homo sapiens, UniProt P11362); cell-free assay, competition with immobilised ligand — remaining binding: 85%.
The remaining binding was 65% (FLT3 (Homo sapiens, UniProt P36888, D835H); cell-free assay, competition with immobilised ligand).
SRPK1 (Homo sapiens, UniProt Q96SB4); cell-free assay, competition with immobilised ligand — remaining binding: 73%.
For CDK19 (Homo sapiens, UniProt Q9BWU1); competition binding: remaining binding read 100%.
CSNK1A1L (Homo sapiens, UniProt Q8N752); cell-free assay, competition with immobilised ligand — remaining binding: 89%.
The remaining binding was 100% (MAP2K1 (Homo sapiens, UniProt Q02750); cell-free assay, competition with immobilised ligand).
For MET (Homo sapiens, UniProt P08581, Y1235D); cell-free assay, competition with immobilised ligand: remaining binding read 96%.
The remaining binding was 85% (MAP3K15 (Homo sapiens, UniProt Q6ZN16); cell-free assay, competition with immobilised ligand).
For DMPK (Homo sapiens, UniProt Q09013); cell-free assay, competition with immobilised ligand: remaining binding read 100%.
It gave 100% for remaining binding (WNK3 (Homo sapiens, UniProt Q9BYP7); cell-free assay, competition with immobilised ligand).
It gave 92% for remaining binding (AKT2 (Homo sapiens, UniProt P31751); cell-free assay, competition with immobilised ligand).

Study 3
Cell line: Huh-7
Tested at: 10 µM
Time: 24 h
With `O=C1CN2Cc3c(ccc(Cl)c3Cl)N=C2N1` the viability was 73.3%.
The viability of `CC(=O)c1ccc(S(=O)(=O)NC(=O)NC2CCCCC2)cc1` is reported as 75.7%.
For `CCN(CC)CCCC(C)Nc1c2ccc(Cl)cc2nc2ccc(OC)cc12` (centres unmarked), the viability was 37.7%.
`Cc1cccc(C)c1OCC(C)N` (centres unmarked) gave a viability of 105%.
`Cc1cccc(N(C)C(=S)Oc2ccc3ccccc3c2)c1` gave a viability of 90.4%.
With `C=C1c2cccc(O)c2C(=O)C2=C(O)[C@]3(O)C(=O)C(C(N)=O)=C(O)[C@@H](N(C)C)[C@@H]3[C@@H](O)[C@H]12` the viability was 92.2%.
For `O=C(CCCCC(=O)Nc1c(I)cc(I)c(C(=O)O)c1I)Nc1c(I)cc(I)c(C(=O)O)c1I`, the viability was 101%.

Study 4
Structure (SMILES): CC#CC(=O)N1CCC[C@H]1c1nc(-c2ccc(C(=O)Nc3ccccn3)cc2)c2c(N)nccn12
Mode: inhibitor
Tested at: 1 µM
The inhibition was 0% (EGFR (Homo sapiens, UniProt P00533, del747-752/P753S); enzyme activity).
PDPK1 (Homo sapiens, UniProt O15530); enzyme activity — inhibition: 0%.
MAP2K6 (Homo sapiens, UniProt P52564); enzyme activity — inhibition: 0%.
It gave 21% for inhibition (Tyrosine-protein kinase JAK1, JH2 pseudokinase domain (JAK1, Homo sapiens, UniProt P23458)).
It gave 38% for inhibition (KIT (Homo sapiens, UniProt P10721, V559D); enzyme activity).
The inhibition was 18% (STK10 (Homo sapiens, UniProt O94804); enzyme activity).

Study 5
Host: mouse
Sample: microsomes or S9
Tested at: 2 µM
Time: 0.5 h
`CCOC(=O)c1c(=O)n2cccnc2c2c(C)cccc12` has a remaining compound of 0.413%.
For `O=c1c2ncn(C3CCS(=O)(=O)C3)c2ncn1Cc1ccc(F)cc1` (centres unmarked), the remaining compound was 35.2%.
With `CCN1CCCC1CNC(=O)c1n[nH]c2c1CCC2` (centres unmarked) the remaining compound was 76.1%.
`CCN(CC)S(=O)(=O)c1ccc2nc(NCc3cc(F)cc(F)c3)cnc2c1` gave a remaining compound of 2.05%.
The remaining compound of `Cc1noc(C2CCCN2C(=O)c2ccnc3c2nnn3C)n1` (centres unmarked) is reported as over 100%.

Excerpt of the above (study 4):
The inhibition was 0% (EGFR (Homo sapiens, UniProt P00533, del747-752/P753S); enzyme activity).
PDPK1 (Homo sapiens, UniProt O15530); enzyme activity — inhibition: 0%.
MAP2K6 (Homo sapiens, UniProt P52564); enzyme activity — inhibition: 0%.
It gave 21% for inhibition (Tyrosine-protein kinase JAK1, JH2 pseudokinase domain (JAK1, Homo sapiens, UniProt P23458)).
It gave 38% for inhibition (KIT (Homo sapiens, UniProt P10721, V559D); enzyme activity).
